Measurements from different studies.
Organism: Staphylococcus aureus

SMILES	assay	test system	setting	MIC
CC[C@H](C)[C@H](NC(=O)CNC(=O)[C@H](CC(N)=O)NC(=O)[C@H](CCCNC(=N)N)NC(=O)[C@@H](NC(=O)[C@H](CC(N)=O)NC(=O)[C@H](CCCNC(=N)N)NC(=O)CNC(=O)[C@H](CCSC)NC(=O)[C@H](CCCCN)NC(=O)[C@H](CCC(=O)O)NC(=O)[C@@H](NC(=O)[C@H](CCCCN)NC(=O)[C@H](CCCCN)NC(=O)[C@H](Cc1ccccc1)NC(=O)[C@@H](NC(=O)[C@H](CCCCN)NC(=O)[C@H](Cc1c[nH]c2ccccc12)NC(=O)[C@@H](N)CCCCN)C(C)C)[C@@H](C)CC)[C@@H](C)CC)C(=O)N[C@H](C(=O)N[C@@H](CCCCN)C(=O)N[C@@H](C)C(=O)NCC(=O)N1CCC[C@H]1C(=O)N[C@@H](C)C(=O)N[C@H](C(=O)N[C@@H](C)C(=O)N[C@H](C(=O)N[C@@H](CC(C)C)C(=O)NCC(=O)N[C@@H](CCC(=O)O)C(=O)N[C@@H](C)C(=O)N[C@@H](CCCCN)C(=O)N[C@@H](C)C(=O)N[C@@H](CC(C)C)C(N)=O)C(C)C)[C@@H](C)CC)C(C)C	–	ATCC 6538	–	inactive
CC1(C)S[C@@H]2[C@H](NC(=O)[C@H](NC(=O)C3=C(O)C(c4ccccc4F)NC3=O)c3ccccc3)C(=O)N2[C@H]1C(=O)O (stereo partly drawn)	microbial growth, broth dilution	MRSA NRS70	drug-resistant strain	50 µg/mL
Cc1cc(/C=C2\Sc3ccccc3N2CCCN2CCCC2)c2ccccc2[n+]1C	microbial growth, broth dilution	ATCC43300 MRSA	–	32 µg/mL
CCCCCCCCCCCN1C(=O)/C(=N\NC(=N)N)c2cc(C)ccc21	microbial growth, broth dilution	–	18 h	6 µg/mL
CN(C)c1cc(CN)c(O)c2c1C[C@H]1C[C@H]3[C@H](N(C)C)C(O)=C(C(N)=O)C(=O)[C@@]3(O)C(O)=C1C2=O	–	RN4250, Tet K efflux	–	16 µg/mL
NC[C@@H]1O[C@H](O[C@H]2[C@@H](O)[C@H](O[C@@H]3[C@@H](O)[C@H](N)C[C@H](N)[C@H]3O[C@H]3O[C@H](CO)[C@@H](OCC(O)CO)[C@H](O)[C@H]3N)O[C@@H]2CO)[C@H](N)[C@@H](O)[C@@H]1O (stereo partly drawn)	broth microdilution	MRSA isolate AG 042	–	16 µg/mL
CCCCCC(C)CCc1nc2ccccc2c(=O)n1N (stereo not drawn)	broth microdilution	RN6390B	–	> 100 µM
CN(C)c1cc(CNC(C)(C)C)c(O)c2c1C[C@H]1C[C@H]3[C@H](N(C)C)C(O)=C(C(N)=O)C(=O)[C@@]3(O)C(O)=C1C2=O	microbial growth, broth dilution	–	–	4 µg/mL
CCSC1COC(=O)N1/N=C/c1ccc([N+](=O)[O-])o1 (stereo not drawn)	microbial growth, broth dilution	ATCC29213	18 h	12.5 µg/mL
Oc1c(Cl)cc(Cl)c2cccnc12	microbial growth, agar dilution	ATCC29213	–	37.4 µM
CN(C)c1cc(CNCc2ccc(O)cc2)c(O)c2c1C[C@H]1C[C@H]3[C@H](N(C)C)C(O)=C(C(N)=O)C(=O)[C@@]3(O)C(O)=C1C2=O	microbial growth, broth dilution	–	–	4 µg/mL
Cn1c(Cl)c(Cl)c(-n2c(C(=O)c3ccccc3O)cc(Cl)c2Cl)c1C(=O)c1ccccc1O	microbial growth, broth dilution	NCTC8325	20 h	> 64 µg/mL
CN(C)c1cc(CNc2ccccc2)c(O)c2c1C[C@H]1C[C@H]3[C@H](N(C)C)C(O)=C(C(N)=O)C(=O)[C@@]3(O)C(O)=C1C2=O	–	RN4250, Tet K efflux	–	2 µg/mL
CNC(CC(C)C)C(=O)NC1C(=O)NC(CC(N)=O)C(=O)NC2C(=O)NC3C(=O)NC(C(=O)NC(C(=O)O)c4cc(O)cc(O)c4-c4cc3ccc4O)C(O)c3ccc(c(Cl)c3)Oc3cc2cc(c3OC2OC(CO)C(O)C(O)C2OC2CC(C)(NC(=O)CCCCCCCCC[n+]3ccccc3)C(O)C(C)O2)Oc2ccc(cc2Cl)C1O (stereo not drawn)	agar dilution	MRSA clinical isolate MRSA4	–	128 µg/mL
CC1C=CC=CC(C)C2C=CC3CC(C)(O)C(F)C(C)C3C2C(=O)C(Cl)(Cl)C(=O)C(C)C(=O)O1 (stereo not drawn)	microbial growth, broth dilution	NEWMAN	–	0.2 µg/mL

A few entries again:
SMILES	assay	test system	setting	MIC
CN(C)c1cc(CNC(C)(C)C)c(O)c2c1C[C@H]1C[C@H]3[C@H](N(C)C)C(O)=C(C(N)=O)C(=O)[C@@]3(O)C(O)=C1C2=O	microbial growth, broth dilution	–	–	4 µg/mL
Oc1c(Cl)cc(Cl)c2cccnc12	microbial growth, agar dilution	ATCC29213	–	37.4 µM
